Assay results from different studies.
Numbered parts are unrelated; each lists some results of a single study. Positions count from the first letter of the parent shown.
Chain of UniProt Q07955 (1-220, looked up): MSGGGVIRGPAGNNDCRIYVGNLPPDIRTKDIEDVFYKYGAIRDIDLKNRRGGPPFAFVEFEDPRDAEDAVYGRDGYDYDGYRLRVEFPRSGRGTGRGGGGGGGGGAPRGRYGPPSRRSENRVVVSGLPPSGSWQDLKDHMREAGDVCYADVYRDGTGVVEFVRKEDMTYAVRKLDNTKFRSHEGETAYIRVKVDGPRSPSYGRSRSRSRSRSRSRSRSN

Series 1 — method: protein-binding microarray; form: double-stranded DNA, one strand shown; medium: in vitro; tested at: 0.8 µM; notes: whole 60-bp probe, no competitor; reading: higher = stronger binding
Target: Centromere-binding protein 1, full length, N-terminal tag (CBF1, Saccharomyces cerevisiae, UniProt P17106, residues 1-351)
Chain of UniProt P17106 (whole entry, looked up): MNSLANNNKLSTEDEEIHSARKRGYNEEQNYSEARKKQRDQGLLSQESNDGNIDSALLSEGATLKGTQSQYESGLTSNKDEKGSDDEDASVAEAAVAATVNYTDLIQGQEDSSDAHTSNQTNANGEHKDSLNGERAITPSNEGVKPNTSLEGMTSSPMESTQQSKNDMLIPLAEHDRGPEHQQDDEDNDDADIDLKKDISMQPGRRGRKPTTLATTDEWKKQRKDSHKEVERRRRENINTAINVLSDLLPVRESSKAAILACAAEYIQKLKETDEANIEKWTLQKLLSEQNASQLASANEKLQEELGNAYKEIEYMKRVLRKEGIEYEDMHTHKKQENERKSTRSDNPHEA
Strand	fluorescence intensity
CTAAGGGCCTTCGTTCTCATCACCATTATTGGCTTCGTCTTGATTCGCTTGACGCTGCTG	464 a.u.
GAAGGCGCCACAGGGCACATGGAGTTTATTTATTAGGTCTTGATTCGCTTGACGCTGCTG	572 a.u.
CTAACTAGACTGCGTGGTGTTGTTCAATTCAAATTCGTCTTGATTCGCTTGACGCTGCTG	540 a.u.
CTACCCAGCTGGGATGTGATCACGATGAGTGACTTCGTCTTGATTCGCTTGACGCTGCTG	1080 a.u.
CTATATTTAATGCGTCACCTGCCTATTCAATAATTCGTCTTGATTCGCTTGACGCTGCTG	1770 a.u.
GAAGATCTTTTCCATCACGCTAACACATGATAATAGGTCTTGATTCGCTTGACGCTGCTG	1210 a.u.
GAAATCCCCTTGATGCACGTGCAGTTAAAAAAATAGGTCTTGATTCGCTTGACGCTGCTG	11700 a.u.
GAAATTATATACAAGAACGTGGTAGAGACTGGATAGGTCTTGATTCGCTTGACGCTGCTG	631 a.u.

Series 2 — target: inorganic phosphate, free oxyanion; method: microfluidic competitive inhibition; medium: in vitro, cell-free expressed; tested at: not given; reading: lower = stronger binding
Notes: derived from inhibition constants, unchanged parent 615000 nM
Parent: PafA, mature enzyme, eGFP fusion (Elizabethkingia meningoseptica, UniProt Q9KJX5); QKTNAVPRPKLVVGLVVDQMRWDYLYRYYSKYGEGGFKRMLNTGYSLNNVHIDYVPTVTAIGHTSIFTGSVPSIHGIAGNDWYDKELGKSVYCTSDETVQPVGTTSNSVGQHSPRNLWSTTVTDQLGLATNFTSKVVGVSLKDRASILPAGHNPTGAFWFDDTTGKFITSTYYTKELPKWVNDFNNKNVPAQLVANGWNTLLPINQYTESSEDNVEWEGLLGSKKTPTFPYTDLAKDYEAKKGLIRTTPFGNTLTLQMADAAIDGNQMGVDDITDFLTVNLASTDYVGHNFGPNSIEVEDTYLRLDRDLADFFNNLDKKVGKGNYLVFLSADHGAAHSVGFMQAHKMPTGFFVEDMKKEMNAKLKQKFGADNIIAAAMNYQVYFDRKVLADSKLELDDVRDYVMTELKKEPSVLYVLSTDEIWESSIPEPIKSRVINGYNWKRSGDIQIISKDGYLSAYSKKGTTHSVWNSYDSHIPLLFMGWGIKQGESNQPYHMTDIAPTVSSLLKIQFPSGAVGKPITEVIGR
Change	phosphate dissociation constant [µM]
G88V	663
Y302G	832
D401V	594
K357V	569
K322V	655
G103A	596
P203V	598
V91G	2200
N131G	370
Q381V	702
L329G	755
F158V	569
Q267G	575
S392G	584
L506V	621
S467V	1030
D183V	673
V270G	627
V215A	623
S223G	529
Y494V	573
Y24V	625
P190V	484
T163V	562
V353A	713

Series 3 — read-out: binding; method: phage display NGS; form: peptide; tested at: concentration not given; relative to: input library
Target: UDP-N-acetylglucosamine--peptide N-acetylglucosaminyltransferase 110 kDa subunit (OGT, Homo sapiens, UniProt O15294)
Chain of UniProt O15294 (whole entry, looked up): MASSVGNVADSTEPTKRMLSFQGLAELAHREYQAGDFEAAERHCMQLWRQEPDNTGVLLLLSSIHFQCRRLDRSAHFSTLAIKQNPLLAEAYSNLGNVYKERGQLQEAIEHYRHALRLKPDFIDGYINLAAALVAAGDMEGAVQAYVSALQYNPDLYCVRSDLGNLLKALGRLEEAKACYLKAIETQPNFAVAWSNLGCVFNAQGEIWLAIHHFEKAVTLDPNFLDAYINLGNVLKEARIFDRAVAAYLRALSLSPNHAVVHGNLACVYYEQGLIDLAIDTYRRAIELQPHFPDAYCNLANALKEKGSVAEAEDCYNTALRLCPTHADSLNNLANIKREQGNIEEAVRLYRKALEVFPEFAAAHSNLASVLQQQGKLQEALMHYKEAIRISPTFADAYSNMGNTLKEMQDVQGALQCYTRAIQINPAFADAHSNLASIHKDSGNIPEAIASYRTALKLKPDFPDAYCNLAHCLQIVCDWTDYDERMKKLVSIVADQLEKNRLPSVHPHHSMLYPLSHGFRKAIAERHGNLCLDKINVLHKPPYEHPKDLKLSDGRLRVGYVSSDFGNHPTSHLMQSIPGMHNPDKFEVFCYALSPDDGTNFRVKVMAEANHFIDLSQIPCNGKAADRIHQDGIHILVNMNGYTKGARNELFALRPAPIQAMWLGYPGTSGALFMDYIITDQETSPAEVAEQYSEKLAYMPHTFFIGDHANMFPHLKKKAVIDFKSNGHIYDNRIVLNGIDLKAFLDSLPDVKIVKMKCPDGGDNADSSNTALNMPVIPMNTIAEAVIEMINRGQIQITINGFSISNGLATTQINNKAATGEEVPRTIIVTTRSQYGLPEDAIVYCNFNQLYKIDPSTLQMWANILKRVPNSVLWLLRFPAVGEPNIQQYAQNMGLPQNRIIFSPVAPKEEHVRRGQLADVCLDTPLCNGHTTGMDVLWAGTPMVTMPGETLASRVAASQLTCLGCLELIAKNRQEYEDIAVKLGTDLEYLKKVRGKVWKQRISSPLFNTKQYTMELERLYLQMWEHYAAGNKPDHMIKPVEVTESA
Sequence	enrichment fold change
AWAQWQHRTYTSHMD	2.8
HGHRWAHPVGPHGPM	4.31
IQYPQVYPPKYQIMV	56
YPPYAFHQATHHHHK	9.53
ASPSYVPHYQMVYKI	2.82

Series 4 — target: CEP164, C-terminal peptide (human); method: DHFR complementation, deep sequencing; medium: yeast; relative to: wild type; reading: higher = weaker binding
Notes: single substitutions, model-inferred values
Parent: PDZK1, PDZ domain 2 (human); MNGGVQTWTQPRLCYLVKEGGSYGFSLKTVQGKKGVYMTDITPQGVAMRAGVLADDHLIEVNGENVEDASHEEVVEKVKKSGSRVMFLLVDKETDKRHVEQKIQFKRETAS; partner HNRVKVYRF
Change	binding free energy change
K28R	0.0668 kcal/mol
T109F	-0.146 kcal/mol
R49K	-0.0315 kcal/mol
G20Y	0.3 kcal/mol
E72G	0.565 kcal/mol
T42A	0.261 kcal/mol
E67H	0.463 kcal/mol
L53R	-0.124 kcal/mol

Series 5 — target: Sox-I, HMG box (Salpingoeca helianthica); method: Spec-seq; form: double-stranded DNA, one strand shown; medium: in vitro; tested at: not given; notes: whole probe, mean of replicates; relative to: not given; reading: lower = stronger binding; shared flanks, not repeated: GAGTCGTCTCGTCAGCAC … CCGTAGAGCACTCAGGTC
Residues (chain): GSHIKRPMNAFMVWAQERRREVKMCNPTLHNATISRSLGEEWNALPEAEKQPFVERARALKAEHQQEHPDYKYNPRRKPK
Strand	relative binding energy [ln ratio]
AAAAGTT	-1.37
GTCAGTT	0.275
CCGTGTT	0.131
CGTAGTT	0.622
CATGAGG	1.14
CATTTCA	0.777
CATTACG	0.671
CATTTGC	1.02

Single results of other studies
Strand	target	test	test system	setting	how to read	endpoint	result
AAAAAAAA (biotin)	Serine/arginine-rich splicing factor 1, RRM domains 1-2 (SRSF1, Homo sapiens, UniProt Q07955, residues 1-220)	protein domain microarray	RNA, in vitro	not given, poly(A) 8-mer RNA, whole probe, immobilized GST-fusion domains, most near background	relative to: GST loading signal, higher = stronger binding	signal ratio	0.0501

Some of these lines once more (series 3):
Sequence	enrichment fold change
ASPSYVPHYQMVYKI	2.82
YPPYAFHQATHHHHK	9.53
IQYPQVYPPKYQIMV	56
HGHRWAHPVGPHGPM	4.31
